Results from different studies.
Every numbered part comes from another study and shows a few of its results, in no order. Positions count from the first letter of the parent shown.

Series 1
Target: ABI1, truncated, D143A, DHFR fusion (Arabidopsis thaliana)
Technique: DHFR PCA, deep sequencing
Matrix: yeast
Setting: methotrexate growth selection, single substitutions
Together with: (+)-ABA 0 µM
Reference: wild-type fitted maximum
Reading: higher = stronger binding
Starting sequence: PYL1, truncated, DHFR fusion (Arabidopsis thaliana); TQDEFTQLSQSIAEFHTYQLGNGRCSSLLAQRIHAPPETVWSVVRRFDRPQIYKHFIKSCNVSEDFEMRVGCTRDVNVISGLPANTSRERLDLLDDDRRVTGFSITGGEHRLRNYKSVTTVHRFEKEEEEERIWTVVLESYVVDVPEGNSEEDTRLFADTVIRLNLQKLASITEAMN
Substitution	relative binding score [%]
I105L	-4.84
H122N	3.87
K54L	-2.87
S59Y	4.25
R45Q	-2.43
L29R	-0.989
V161N	22.8
S63I	5.12
H110M	26.7
Q31L	1.42
D153V	-1.08
Y115T	4.98
S80L	39.3
N149G	61.1
F66W	6.71
G107L	-1.96
E67G	1.15
T101N	-0.869
A30W	15.8
T1F	22.7
S80R	3.72
S140C	3.04
I12R	0.649
R24F	1.11
E127M	37.3

Series 2
Target: CCNB3, cyclin fold, Cln2 fusion (human)
Technique: yeast growth competition, sequencing
Matrix: yeast
Setting: weak parent motif
Reference: not given
Reading: higher = stronger binding
Starting sequence: CCP110 docking peptide (human); EKVKRRLDLDIDG
Substitution	normalised enrichment score
K4A	-0.0222
R5K L9F	1.46
E1A	0.255
G13A	0.601
R5K	0.101
D10A	0.444
D8A	0.289
I11A	0.223
R5A L7A	0.0645
L7A	-0.473

Series 3
Target: RING finger protein unkempt homolog, zinc fingers 1-6, GST-SBP tag (UNK, Homo sapiens, UniProt Q9C0B0, residues 30-357)
Technique: RNA Bind-n-Seq
Form: RNA
Matrix: in vitro
Concentration: not given
Setting: RNA with constant flanks, human and mouse sites, ends assumed
Reference: input RNA pool
Reading: higher = stronger binding
Residues (chain): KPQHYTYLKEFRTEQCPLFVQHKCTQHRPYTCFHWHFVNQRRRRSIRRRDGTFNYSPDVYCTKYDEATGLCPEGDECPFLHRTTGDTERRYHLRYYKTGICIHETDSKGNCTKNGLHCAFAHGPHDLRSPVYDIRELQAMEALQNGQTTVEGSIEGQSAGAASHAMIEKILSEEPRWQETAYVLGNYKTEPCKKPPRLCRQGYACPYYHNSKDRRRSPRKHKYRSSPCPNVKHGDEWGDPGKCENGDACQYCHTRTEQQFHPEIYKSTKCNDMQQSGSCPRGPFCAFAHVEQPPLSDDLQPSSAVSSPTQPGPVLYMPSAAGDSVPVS
Strand	bound/input enrichment
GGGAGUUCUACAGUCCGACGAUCAUUCAUCGGAUUCGACAUUUUUAUAUGAGAAAAGUCAAAUUUACUCAACAGAAUUACCAUGACAGACUGUCACAGAUUCUGUCGGAUUUCCCCAAAUUGGAUGAUAUCCAUCCGUUUUAUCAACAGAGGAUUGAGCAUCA	0.16 ratio
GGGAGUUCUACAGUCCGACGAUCCUCAUUUUUGACUUGGGAGGUGGCACUUUUGAUGUGUCAAUCCUCACUAUUGAGGAUGGAAUUUUUGAGGUCAAAUCAACAGCUGGAGACACCCACUUAGGUGGAGAAGAUUUUGACAACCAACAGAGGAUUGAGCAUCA	1.13 ratio
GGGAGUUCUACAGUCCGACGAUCGAAUCCGCUUGUCAGUCUCGCAAGAAGAAGAAAGAAUAUAUGCUAGGGUUAGAGGCGAGAUUAAAGGCUGCCCUCUCAGAAAACGAGCAACUGAAGAAAGAAAAUGGAACACUGAAGCGGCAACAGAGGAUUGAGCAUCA	0.511 ratio
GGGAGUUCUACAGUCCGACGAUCCUGAGUCAUCCAUCCAGAAGGGGGGAGAGCAGAGCGCAGCCGCCCAGGCAGGAGCAUCAGCCAGCGAUACCUGGAGUCUGCAGAAACCUCGCCCGCACUUUGCAACAAAGGCAGCCAGCUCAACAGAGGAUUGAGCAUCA	0.167 ratio
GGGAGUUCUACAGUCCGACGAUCUCAAAUAUAUAAGAGCCAAACUCUUUUCCAUUCCAUCUAAAAUGUUUUCAUUUAGUACUCUUCUUUCCUCCUACUCUAUGAACUUCAAAACAAAAACAAAACUUUGAGAGCAGCACAUGCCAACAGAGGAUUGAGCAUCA	0.92 ratio
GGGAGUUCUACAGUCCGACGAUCGAGAAGCGCGCUUCAGGCCAGGCUUUUGAGCUGAUUCUCAGCCCUCGGUCAAAAGAAUCUGUCCCCGAUUUCCCCCUUUCCCCCCCAAAGAAGAAGGACCUUUCCCUGGAGGAAAUCCAGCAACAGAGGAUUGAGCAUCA	0.386 ratio
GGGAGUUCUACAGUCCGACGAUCUUUUGCCACUUACUUUUCUGUCAUUAUAUGCUUAUUUGUUUUGUCAUUUACGUGACCAUUUGAUUCUCAAACAAAAGUUGUUCCAAACAAAAUGAUGAACUUUGAUUUGAACAGGUGCAUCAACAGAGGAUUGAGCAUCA	0.279 ratio
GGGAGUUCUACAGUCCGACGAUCCGGAGGCGCUACCCUCAGAUCUAUGCCAGCAGCCACAAGCUGCAGCUGGAUGUCACCUCAAUAGUGCUCAGCGCCCACGACUUCUACCAUGCCAUGCAGAACAUCGUGCCUGCUUCCCAACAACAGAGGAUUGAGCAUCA	0.063 ratio
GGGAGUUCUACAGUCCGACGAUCCAACAGAGUCUAGGAUGGGUUCAUUACAUGAUUCAUGAGCCAGAACCGCAUAUUCUUCUCUUUAGACGACCUCUUCCAAAAGAACAACAAAAAUGAAGUGCAGCUGGGAUCAUCUAAUCUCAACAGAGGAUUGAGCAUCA	0.313 ratio
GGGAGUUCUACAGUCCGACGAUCCCUGCAGCGGCCAAGAAGCCAAAAAUCUUUUCCUCUUUUUUUUUUCUCAGAUACUGUGCCCCAUUUUUGGAGAGGGGAAGGUGGGCAUUGCUAAAUGGCUAAUGUACUGUUCCCCCAGCUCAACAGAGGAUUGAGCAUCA	0.476 ratio
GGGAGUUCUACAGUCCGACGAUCUUAUUCCCUUCAUCAUUUACUGAAAAUUGUGAAUUACUGUCAUGCUCAGGGGAGAAUAGAACUAUGGUGCAUUCUCUUAAUAGCACUGCUGAUGAAAGUGGACUAAAUAAACUUAAAAUUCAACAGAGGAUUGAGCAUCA	0.105 ratio

Series 4
Target: JUNB, bZIP domain (human)
Technique: DHFR protein complementation
Matrix: yeast
Setting: single substitutions, most at no-binding floor
Reference: wild-type JUN-FOS pair
Reading: higher = stronger binding
Starting sequence: JUN, bZIP domain (human); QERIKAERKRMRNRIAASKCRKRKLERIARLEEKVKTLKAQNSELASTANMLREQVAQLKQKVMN; partner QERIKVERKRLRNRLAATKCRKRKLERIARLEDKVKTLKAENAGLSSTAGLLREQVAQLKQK
Substitution	binding fitness
N42H	-1.2 natural log
E33W	-1.32 natural log
Q55A	-1.41 natural log
V35S	-1.48 natural log
L45G	-1.51 natural log
K34C	-1.2 natural log
V56R	-1.43 natural log
V35W	-1.38 natural log
E54D	-1.3 natural log
K34H	-1.2 natural log
E44C	-1.35 natural log
S47M	-0.893 natural log
E54S	-1.33 natural log
A49G	-1.38 natural log
L38F	-1.49 natural log
S43N	-1.12 natural log

Series 5
Molecule: PhoQ, residues 284 288 289 292 302 303 SSTMSV
Technique: Sort-seq
Refers to: YFP reporter
Matrix: E. coli
Setting: PhoQ-PhoP variant library
Together with: 10 µM Mg2+
Reference: high Mg2+ state
Reading: higher = stronger signaling
target	fold induction
PhoP, residues 12 14 15 18 19 LHHYF (Escherichia coli, UniProt P23836)	15.6
PhoP, residues 12 14 15 18 19 VGHWL (Escherichia coli, UniProt P23836)	5.99
PhoP, residues 12 14 15 18 19 TPWTL (Escherichia coli, UniProt P23836)	1.03
PhoP, residues 12 14 15 18 19 NFFVT (Escherichia coli, UniProt P23836)	5.8

Series 6
Target: Interferon regulatory factor 5, full length, phosphomimetic (IRF5, Homo sapiens, UniProt Q13568-2, residues 1-514, S451D/S453D/S456D/S462D)
Technique: protein-binding microarray
Form: double-stranded DNA, one strand shown
Matrix: in vitro
Concentration: 940 nM top
Setting: 60-bp whole probe
Together with: salmon DNA 0.4 mg/ml
Reference: random background probes
Reading: higher = stronger binding
Shared flanks, not repeated: GCCTAGCAC … GTCTTGATTCGCTTGACGCTGCTG
Strand	fitted relative affinity
AGTATGTTCCTTATTTAAGAGTGCTAG	0.438 z-score
TCAATGTTCACTATTTAACTGTGCTAG	0.464 z-score
TCTAATATTCATTTTATTCAGTGCTAG	0.529 z-score
TTTTCTCTCCCATTCTGAATGTGCTAG	1.86 z-score
GACGGACTGGGTTTAGGGACGTGCTAG	-0.222 z-score
TCAACATTGTGCAATCTTACTGTGCTA	-0.0891 z-score
TCACTTTTTTTTTTCCCACTGTGCTAG	1.54 z-score
TCAAGTCTGGGCTACAACTTGGTGCTA	-0.621 z-score
TATTATTTGCCTTGCATTTTGTGCTAG	0.226 z-score
AGGAAGACATCAAAGAGAGCGTGCTAG	-0.646 z-score
ACCTGTTCCCTCATCAGGCTGTGCTAG	0.775 z-score
TTAGGTATCGGTTTCGCTTAGTGCTAG	11.2 z-score
TCTGCTTTGCCTTCAGCCCGGTGCTAG	-0.29 z-score
GGGGTTAGGGTCATTCATTCGTGCTAG	-0.249 z-score
GACGGACTGGGGTTACGGGACGTGCTA	-0.311 z-score
GACGGACTGGACTTGCGGGACGTGCTA	-0.772 z-score
GACGGTCTCGGGCTCGGGACGTGCTAG	1.03 z-score
GACGGTTTCGGTTATCGGGACGTGCTA	13.9 z-score
GGTCTTCTGGACTGTTTGGTCGTGCTA	-0.0322 z-score
TTAGGACTGGGGATTCGGTTAGTGCTA	-0.11 z-score
TAGGTTTCACTTTCCAAAACGTGCTAG	10 z-score
GACGGTATCGGTGTCGGGACGTGCTAG	6.68 z-score
GACGGACTGGATTATCGGGACGTGCTA	-0.447 z-score
TTAGATTTCGGGGCTGGATTAGTGCTA	1.04 z-score
GACGGTCTCCTTTTCATGACGTGCTAG	0.889 z-score

A few entries again (series 4):
Substitution	binding fitness
E54D	-1.3 natural log
E44C	-1.35 natural log
K34H	-1.2 natural log
L38F	-1.49 natural log
E54S	-1.33 natural log
A49G	-1.38 natural log
K34C	-1.2 natural log
S43N	-1.12 natural log
Q55A	-1.41 natural log
L45G	-1.51 natural log
S47M	-0.893 natural log
V35S	-1.48 natural log
V56R	-1.43 natural log
E33W	-1.32 natural log
V35W	-1.38 natural log
